Results pooled from the literature.
Parts stem from different laboratories: compare values within a part only. Changes are numbered by the printed parent chain.

Block 1
Target: Interferon regulatory factor 7, full length, phosphomimetic (IRF7, Homo sapiens, UniProt Q92985, residues 1-503, S471D/S472D/S475D/S476D/S477D/S483D/S484D/S487D)
Method: protein-binding microarray
Molecule type: double-stranded DNA, one strand shown
Medium: in vitro
Tested at: 2200 nM top
Setting: 60-bp whole probe
Together with: salmon DNA 0.4 mg/ml
Baseline: random background probes
Reading: higher = stronger binding
Shared flanks, not repeated: GCCTAGCAC … GTCTTGATTCGCTTGACGCTGCTG
Target sequence (chain): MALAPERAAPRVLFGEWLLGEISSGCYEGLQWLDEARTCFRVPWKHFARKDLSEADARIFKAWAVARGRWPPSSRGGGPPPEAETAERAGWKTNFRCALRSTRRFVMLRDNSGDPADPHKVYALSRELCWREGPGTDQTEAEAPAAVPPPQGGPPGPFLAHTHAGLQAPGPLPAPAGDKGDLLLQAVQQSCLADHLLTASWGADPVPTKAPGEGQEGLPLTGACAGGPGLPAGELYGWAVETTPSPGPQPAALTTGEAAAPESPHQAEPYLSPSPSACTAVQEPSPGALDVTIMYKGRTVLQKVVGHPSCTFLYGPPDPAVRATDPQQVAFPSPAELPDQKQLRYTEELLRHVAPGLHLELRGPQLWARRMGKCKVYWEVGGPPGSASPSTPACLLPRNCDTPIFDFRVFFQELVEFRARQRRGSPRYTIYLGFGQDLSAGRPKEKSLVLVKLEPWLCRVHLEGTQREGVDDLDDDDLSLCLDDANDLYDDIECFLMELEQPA
Strand | fitted relative affinity [z-score]
TTAGGATTCGGGACTGGGTTAGTGCTA | 0.0331
TTAGGTATCGCCACTGGGTTAGTGCTA | -0.0274
CTTAGCATGGGGAGGGAGCAGTGCTAG | -0.126
TTAGGACTGGGGTTACGGTTAGTGCTA | -0.262
TTAGGTATCCTTTGCCTTTAGTGCTAG | 0.793
TTAGGACTGCTACTGCTTCAGTGCTAG | -0.105
GACGAATTCGGGTATCGAGACGTGCTA | 0.463
TTAGATGTCAGTTTCGATTAGTGCTAG | 5.82
GACGACTCCAGTTTCGAGACGTGCTAG | 3.67
TCAGTTTTTCATTTTGTACTGTGCTAG | 3.28
GACGATATCAGTATTGAGACGTGCTAG | 0.0516
AAACAAGTTTCACGTCTTATAGTGCTA | 0.717
ACTAGATAAGACAAAGTGATGTGCTAG | -0.882
TTAGGACTGGACTATCTGTTAGTGCTA | -0.292
AATTAGGTTTCACTTTCCAAAGTGCTA | 5.69
GACGATACCAGTTTCGAGACGTGCTAG | 3.7
GACGAACTGGGGACTGGCGACGTGCTA | -0.342
TCCATTTCTGTTTTTGCTTTGTGCTAG | 5.48
TTAGGTCTCCTACTGCTTTCGTGCTAG | 1.65

Block 2
Target: RNA binding protein fox-1 homolog 2, RRM domain, GST-SBP tag (RBFOX2, Homo sapiens, UniProt O43251-10, residues 100-194)
Method: RNA Bind-n-Seq
Molecule type: RNA
Medium: in vitro
Tested at: 365 nM
Setting: natural RNA segment, single round, ends assumed
Baseline: no-protein control
Reading: higher = stronger binding
Shared flanks, not repeated: GGGAGUUCUACAGUCCGACGAUC … UGGAAUUCUCGGGUGCCAA
Target sequence (chain): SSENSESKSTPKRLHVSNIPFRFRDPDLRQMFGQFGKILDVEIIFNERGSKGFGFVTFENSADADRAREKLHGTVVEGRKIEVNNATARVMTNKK
Strand | RBNS enrichment (R)
AAGGAGGUGCACCCAGGAGGGUCCUCAGAAUCAUGGACUUCUACCCCAUUGCUGGUAGACAAUUUUCAUCUCUGCUGGUGGUGGCCUCUUGUUGACUCUGAAACUUGUCA | 0.473
GGGGGAGAGGCAGACAUUGCUGCCCACAGACCUGCCUCUGACUCAACUGUGUCCACCCUCCCUGGUCCCUACCCCCAAGUCACAGGUGACUCAGCAGUGACCCUGUGUGC | 0.237
GCGAGAAUGUCCUGCUGGUUCAUCUUGCACAGUGCCAGCUCAGCCUGAGCUUUGGUUUUUAGAAAUAAAGUGCAUGAAUUGCUGCUAUGCUGUAUCCUAGUAUCCCAGUG | 0.802
GUCUGUGAUUUUGUACCUUGUGAAGGAGACAGAGGGAGGCAGAUGAAUAAACAGUUGCUCUCUGUCCCCUCCUGGGUGCCUGGCCUUCCUGGACCCAGGGAAUUCACCAG | 0.184
UCCCAUCCCACCCUGUUCUUUCCAUAGAACUUUUGAUAUCAGGCAAACGGUUUCCUUUUUGAGAUAUUUUAACAGAGAAGGGGUGGGGGAGAAGCAGAUGAAGCUGUACU | 0.352
UGCCUCUCUUAGUCUUCCCCCUAGAGCUAGGCGCCUACCAGGUGUAUAUAUGUAGCAUACUUUGGGGGACUGCGAUCAGAAGUGAGGUGGAGGGACUGGCACCGGUUAAC | 0.322
CGGCCAGGGCCCGCGGGGGGCACCACCUGUGGACAGCCCUCCUGUCCCCAAGCUUUCAGGCAGGCACUGAAACGCACCGAACUUCCACGCUCUGCUGGUCAGUGGCGGCU | 0.148
GUCUUCCCUGCUGUAGAGAUGUUCCUGUGCACCUGAGGAGCCUCCUGCCUGCCGUCCUUGCGUCCACCAUCCCUCUGCCAGGAUGCUGCUCUUGCACCAAGUGCCUUCUG | 2.13
AAGCUUUUCUCUAGCCUACAGUAGGGUCGAUCUGCCGAGCUGCUGAAUAACCCUGCUUGAUUUUAGCAACAAGAGACAAUCCAUGCCAUGCUUUUAUCCUGAGAAACCUG | 0.9
AAAAAAAAAAUUGUUUGAGUACAUUUUCCCUGCAUUUUAGAGAUUAGGACAGUGGUCACUUUCUAGUUGCCGUCUUCACAGACAAACUUGAAAGGUAUUAAGGAAAAAAU | 0.598
UAAUUUUAAAACUUGAAGACUUCCAGACUUAUCCAACUUAUAAAUAACAUAUUUCUUCAGACUAACAUCUUAAAACACUGACCUCUAUGAGGUAUUUACUGUGCAAUAAC | 0.545
CAGUUCUCUUGGCCUCAAAACUCACAAGGUUUUCCCCUAAACCAGCUCCUUGGAGGCUGGCAGGAGCAGAGAGGGGUGUGUGAGGGAGGAGAGCCUGUCUUGUUGGUGGG | 0.606

Block 3
Target: NFE2, bZIP domain (human)
Method: DHFR protein complementation
Medium: yeast
Setting: single substitutions, most at no-binding floor
Baseline: wild-type JUN-FOS pair
Reading: higher = stronger binding
Starting sequence: JUN, bZIP domain (human); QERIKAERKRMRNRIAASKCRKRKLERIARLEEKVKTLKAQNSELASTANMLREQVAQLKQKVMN; partner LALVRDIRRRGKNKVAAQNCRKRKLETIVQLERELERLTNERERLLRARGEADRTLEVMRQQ
Substitution | binding fitness [natural log]
S43A | -1.27
E44Y | -1.46
E44T | -1.56
K36S | -1.53
T48F | -1.57
A40Q | -1.18
A29G | -1.4
I28T | -1.5
I28N | -1.31
V35F | -1.5
E54A | -1.38
A46C | -1.59

Block 4
Target: CCNF, cyclin fold, Cln2 fusion (human)
Method: yeast growth competition, sequencing
Medium: yeast
Setting: strong parent motif
Baseline: not given
Reading: higher = stronger binding
Starting sequence: INSM1 docking peptide (human); PKAIRKLHFEDEV
Substitution | normalised enrichment score
D11W | 7.86
E10I | 7.26
R5H | 0.796
F9K | 0.00772
F9L | 4.82
K6Q | 7.42
H8M | 7.75
E12R | 7.13
K2L | 7.29
F9S | 0.465
K6N | 3.04
I4F | 6.76
E12N | 7.66
F9Q | 0.649
I4E | 4.01
I4V | 7.54
H8E | 6.85
K2S | 7.33
I4M | 7.91
L7Q | 0.145
D11G | 7.62
H8F | 7.65
R5Y | 0.338
L7G | -0.109
I4K | 8.43

Block 5
Target: Max-binding protein MNT, bHLH-zipper, MAX partner unstated (MNT, Homo sapiens, UniProt Q99583, residues 220-300)
Method: protein-binding microarray
Molecule type: double-stranded DNA, one strand shown
Medium: in vitro
Tested at: not given
Setting: k-mer, scored over probes, only values ≥0.25
Reading: higher = stronger binding
Residues (chain): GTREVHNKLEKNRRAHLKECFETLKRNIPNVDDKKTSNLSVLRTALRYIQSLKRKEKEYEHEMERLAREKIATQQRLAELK
Strand | E-score
CGCATTGC | 0.281
GCGCAACC | 0.303
ACGCACGC | 0.422
GGCGGGCA | 0.251
CACGAGGA | 0.463
ATGTGGTG | 0.325
ACGCGGTC | 0.335
AACGTGAC | 0.419
CCCGCCAC | 0.341
AGACGCAT | 0.308
GCCACGCC | 0.355
CCTCCCAC | 0.266
CACCCTCC | 0.281
ACCCCGTG | 0.406
CAACACGA | 0.277
CGCGCGGC | 0.262
AATGCGTG | 0.266
ATGGCACC | 0.252

Block 6
Target: ABI1, truncated, D143A, DHFR fusion (Arabidopsis thaliana)
Method: DHFR PCA, deep sequencing
Medium: yeast
Setting: methotrexate growth selection, single substitutions
Together with: (+)-ABA 0.11 µM
Baseline: wild-type fitted maximum
Reading: higher = stronger binding
Starting sequence: PYL1, truncated, DHFR fusion (Arabidopsis thaliana); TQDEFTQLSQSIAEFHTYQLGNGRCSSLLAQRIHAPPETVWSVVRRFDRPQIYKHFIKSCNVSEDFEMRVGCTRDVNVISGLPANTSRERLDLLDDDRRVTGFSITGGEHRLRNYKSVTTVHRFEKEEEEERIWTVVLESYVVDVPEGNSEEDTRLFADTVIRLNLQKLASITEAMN
Substitution | relative binding score
D159T | -8.68%
F124T | 0.806%
K116H | 9.64%
L20A | 46.9%
D97Y | 8.98%
S150Y | -7.47%
D75G | -3.03%
T160C | 1.38%
F56N | 5.07%
E4M | 27.2%
S104F | 0.889%
A175C | 20.8%
S42Y | -3.64%
S150H | -6.15%

Mixed results
Substance | target | test | system | conditions | scale | measurement | result
PhoQ, residues 284 288 289 292 302 303 SMYGEC | PhoP, residues 12 14 15 18 19 QWHVF (Escherichia coli, UniProt P23836) | Sort-seq, refers to: YFP reporter | E. coli | PhoQ-PhoP variant library, together with: 10 µM Mg2+ | baseline: high Mg2+ state, higher = stronger signaling | fold induction | 2.11
